Experimental data pooled from the literature.
Lines come from different studies, so protocols differ. Values joined by “and” are separate records of one study, mostly repeats; a detail may differ. Numbers after ± are the reported error.
Sodium- and chloride-dependent glycine transporter 2: Sodium- and chloride-dependent glycine transporter 2 (Homo sapiens, UniProt Q9Y345)
Gria1/Gria2: Glutamate receptor AMPA 1/2 (Gria1/Gria2, Rattus norvegicus, UniProt P19490+P19491)
TARDBP aggregated: TAR DNA-binding protein 43, aggregated (TARDBP, Homo sapiens, UniProt Q13148)
GAP50: Glideosome-associated protein 50 (GAP50, Plasmodium falciparum, UniProt Q8I2X3)

SMILES | target or system | assay | test system | setting | scale | measurement | result
CC(C)(C)NC(=O)C1CCN(Cc2cccc(/N=N/c3ccc(F)cc3)c2)CC1 | Atypical chemokine receptor 3 (ACKR3, Homo sapiens, UniProt P25106) | β-arrestin2 recruitment, agonist, NanoBiT | HEK293T | – | relative to: trans over cis isomer | potency ratio | 10 fold
CC(=O)c1cnc(NS(=O)(=O)c2ccc(C(F)(F)F)c(Cl)c2)nc1 | 17-beta-hydroxysteroid dehydrogenase 13 (Homo sapiens, UniProt Q7Z5P4) | enzyme activity | human hepatocytes, HSD17B13 siRNA, culture medium | 7 h | relative to: scramble siRNA control | oxidized product ratio | 0.0508 and 0.0514 and 0.0767 and 0.0745
O=C(N[C@@H](Cc1ccc(OCCCCC2CCNCC2)cc1)C(=O)O)c1nc2ccccc2o1.O=C(O)C(F)(F)F | Integrin alpha-IIb/beta-3 (Homo sapiens, UniProt P05106+P08514) | inhibitor, flow cytometry | washed platelets, human | 30 nM, 30 min, room temperature, together with: ADP 20 µM, Alexa647-fibrinogen | higher = more binding | fibrinogen binding MFI | 199000 a.u. and 198000 a.u.
O=C(NC1CCN(Cc2ccccc2)CC1)c1ccccc1 | Sodium- and chloride-dependent glycine transporter 2 | MS binding competition | – | 10 µM | – | remaining specific binding | 72.7 ± 14.9%
COCCOc1cc2ncnc(Nc3cccc(-c4cn(Cc5ccc(S(N)(=O)=O)cc5)nn4)c3)c2cc1OCCOC | Carbonic anhydrase 12 (CA12, Homo sapiens, UniProt O43570) | – | – | – | relative to: Ki hCA VA over Ki hCA XII | selectivity ratio | 2.17
O=C(O)Cc1cc2c(cc1C(=O)c1cccc(I)c1)OCO2 | Gria1/Gria2 | glutamate-evoked current, whole-cell patch clamp | HEK-293T | concentration not given | – | current amplitude | 172 ± 16 pA
CC(=O)C12NC(C)(C)CC1(C)C(=O)C1=C2c2c(c3c4n2C(C)(C)CC2=C4C4(CC(C)(C)NC(C)(C4)C2=O)CC3(C)C)C(=O)C(C)(C)N1 (single isomer, unassigned; (-)) | Neuronal acetylcholine receptor subunit alpha-7 (CHRNA7, Homo sapiens, UniProt P36544) | ion current, agonist, whole-cell patch clamp | HEK293T | 10 µM | – | activation | 0.59 ± 0.01%
O=C(O)Cc1cc2c(cc1C(=O)c1cccc(Br)c1)OCO2 | Gria1/Gria2 | glutamate-evoked current, whole-cell patch clamp | HEK-293T | concentration not given | relative to: glutamate alone | current amplitude ratio | 5.18 ± 0.3
O=C1c2sc(-c3ccc(N4CCC(F)C4)nc3F)nc2CCN1c1cccnc1 (stereo not shown) | TARDBP aggregated | radioligand binding | human, FTLD-TDP type B extract | together with: radioligand 26.56 nM | – | specific binding | 3.49 nM and 2.61 nM
CC(=O)NCCCC[C@H](NC(=O)CNC(=O)CNC(=O)[C@@H](NC(=O)[C@H](CO)NC(=O)[C@H](CCCCN)NC(=O)[C@H](CCCNC(=N)N)NC(=O)[C@H](C)NC(=O)[C@@H](NC(=O)[C@H](CCC(N)=O)NC(=O)[C@H](CCCCN)NC(=O)[C@@H](NC(=O)[C@H](CCCNC(=N)N)NC(=O)[C@H](C)N)[C@@H](C)O)[C@@H](C)O)[C@@H](C)O)C(=O)N[C@@H](C)C(=O)N1CCC[C@H]1C(=O)N[C@@H](CCCNC(=N)N)C(=O)N[C@@H](CCCCN)C(=O)N[C@@H](CCC(N)=O)C(=O)O | YEATS domain-containing protein 4 (Homo sapiens, UniProt O95619, E109A) | differential scanning fluorimetry | – | together with: 50 µM peptide | relative to: buffer-only reference | ΔTm | 0.32 °C
Cc1nc2ccc(F)cc2c2c1C1(C)CC2c2cc(F)ccc2N1 (stereo not shown) | GAP50 | differential scanning fluorimetry | – | – | – | ΔTm | -1 °C
CC(C)[C@@H]1NC(=O)[C@H](Cc2ccccc2)NC(=O)CSC[C@@H](C(N)=O)NC(=O)[C@H](CCC(=O)O)NC(=O)[C@H](CO)NC(=O)[C@H](Cc2c[nH]c3cccc(Cl)c23)NC(=O)[C@H](C2CCCCC2)NC(=O)[C@H](C(C)C)NC(=O)[C@H](Cc2ccc(O)cc2)NC(=O)[C@H](CC(=O)O)NC(=O)[C@H](Cc2c[nH]c3ccccc23)NC(=O)[C@H](Cc2ccc(N)nc2)NC(=O)[C@H](Cc2c[nH]c3ccc(Cl)cc23)NC(=O)[C@H](CCC(=O)O)NC1=O | Interleukin-1 receptor-like 2 (IL1RL2, Homo sapiens, UniProt Q9HB29) | reporter gene (SEAP), inhibitor, HEK-Blue IL-36R reporter | HEK-Blue IL-36R cells | 3.7 µM, 6 h, together with: IL-36β 3 ng/mL | – | remaining activity | 70.3%
CC(C)(C(=O)N1CCC(Nc2nc3c(c(=O)[nH]2)CCCC3)CC1)c1ccc(Cl)cc1 | MRGPRD (Homo sapiens, UniProt Q8TDS7, K102A) | miniGq recruitment, agonist, BRET | HEK293T | K102A mutant | – | Hill slope | 0.92
CCOC(=O)c1ccc2c(c1)C1CC(C)(N2)c2c(C)nc3ccc(C(=O)OCC)cc3c21 (stereo not shown) | GAP50 | binding, surface plasmon resonance | – | 1:1 binding model | – | koff | 0.0292 s⁻¹
COC(=O)Cc1cc2c(cc1C(=O)c1ccc(Cl)cc1Cl)OCO2 | Gria1/Gria2 | glutamate-evoked current, whole-cell patch clamp | HEK-293T | concentration not given, glutamate alone after washout, together with: glutamate | – | current amplitude after recovery | 539 ± 38 pA
Cc1ccc(NC(=O)CCC(=O)N/N=C/c2ccc([N+](=O)[O-])o2)cc1C | Trypanosoma cruzi | reporter mRNA translation, inhibitor, measured: Renilla luciferase mRNA | cell-free extract | concentration not given, test 2 | relative to: positive over negative control | translation activity | 121% and 113%

SMILES | target or system | assay | test system | setting | scale | measurement | result
COC(=O)Cc1cc2c(cc1C(=O)c1cccc(Br)c1)OCO2 | Gria1/Gria2 | glutamate-evoked current, whole-cell patch clamp | HEK-293T | concentration not given, glutamate alone after washout, together with: glutamate | – | current amplitude after recovery | 539 ± 41 pA
C#CC[C@H](NC(=O)c1ccc(C(=O)c2ccccc2)cc1)C(=O)NCCCCCC(=O)N[C@@H](CCCCNC(=O)CSCCNC(=O)CCNC(=O)[C@H](O)C(C)(C)COP(=O)(O)OP(=O)(O)OC[C@H]1O[C@@H](n2cnc3c(N)ncnc32)[C@H](O)[C@@H]1OP(=O)(O)O)C(N)=O | Elongation factor 1-alpha 1 (EEF1A1, Homo sapiens, UniProt P68104) | affinity enrichment LC-MS/MS | HEK293 cell extract, PCAF transfected | – | relative to: 1 over empty vector | enrichment ratio | 2.1
Cc1cc(-c2ccccc2)cc(C(=O)NNS(=O)(=O)c2ccccc2)c1F | Histone acetyltransferase KAT5 (KAT5, Homo sapiens, UniProt Q92993) | SPR | – | 1.85 µM | higher = more binding | SPR binding response | 0.121 RU
CCCCCC(O)/C=C/C=O (stereo not shown) | Adenomatous polyposis coli protein, isoform long (APC, Homo sapiens, UniProt P25054) | ATP probe labelling, acylphosphate-ATP probe SILAC-ABPP | ZAK-transfected HEK293T proteome | 100 µM, 30 min | relative to: DMSO over compound, higher = stronger blockade | SILAC-ABPP ratio | 20
C#CCOC(=O)[C@]1(C)C=C(C(=O)OC(C)(C)C)C(=O)CC1 | Mitogen-activated protein kinase 1 (MAPK1, Homo sapiens, UniProt P28482) | enzyme activity, D-SENSOR | – | 44.44 µM, single replicate | – | normalized kinase activity | 0.38 and 0.272 and 0.434
CC1=CC(C)=[N+]2C1=C(CCCCN1CCCC(O)C1)c1c(C)cc(C)n1[B-]2(F)F (stereo not shown) | Sodium- and chloride-dependent glycine transporter 2 | MS binding competition | – | 10 µM | – | remaining specific binding | 85.7 ± 4.6%
CCc1cc(O)cc2c(/C=N/NC(=N)NCCc3ccc(Cl)cc3)c[nH]c12 | Relaxin-3 receptor 2 (RXFP4, Homo sapiens, UniProt Q8TDU9, L118S) | – | HEK-293T | – | relative to: wild type | Emax | 100 ± 7.81%
CC(C)Oc1cc(Cl)ccc1CNc1cc(-c2ccccc2)nc2ncnn12 | G-protein coupled receptor 3 (GPR3, Homo sapiens, UniProt P46089) | cAMP reporter | human cells | 1 nM | higher is more cAMP | cAMP luminescence | 38900 a.u. and 64000 a.u. and 30200 a.u. and 29800 a.u. and 36000 a.u. and 33900 a.u. and 23800 a.u. and 47300 a.u.
CN(Cc1cc(C2CC2)on1)C(=O)c1cccc(-c2ccc3c(c2)CCO3)c1 | Acetyl-coenzyme A synthetase 2 (ACS2, Candida albicans, UniProt Q8NJN3) | enzyme activity, inhibitor, coupled pyrophosphate | – | 200 nM | higher is more activity | reaction rate | 0.00304 a.u.
COC(=O)[C@@]1(C)C=C(C(=O)Nc2cccc(C(=O)Nc3ccc(Nc4nccc(-c5cccnc5)n4)c(C)c3)c2)C(=O)CC1 | Mitogen-activated protein kinase 8 (MAPK8, Homo sapiens, UniProt P45983) | enzyme activity, inhibitor | – | 8.36e-05 µM, 0 h, unit not given, together with: GSH 10 mM pre-incubation | relative to: vehicle | remaining activity | 1.03
C=CC(=O)N1CCCC(n2c(=O)c3ncccc3n(Cc3ccc(Oc4ccccc4)cc3)c2=O)C1 (stereo not shown) | Septin-1 (SEPTIN1, Homo sapiens, UniProt Q8WYJ6) | thermal proteome profiling, measured: SEPTIN1 | – | treated | – | melting temperature | 46.8 °C and 41.2 °C
COCCOc1cc2ncnc(Nc3ccc(Oc4ccccc4)cc3)c2cc1OCCOC | SMUG1 (Homo sapiens, UniProt Q53HV7) | enzyme activity, activator, fluorescence | – | 2 µM | relative to: control | activity | 70 ± 10%
N=C(N)NCCS(=O)(=O)O | Sodium- and chloride-dependent taurine transporter (SLC6A6, Homo sapiens, UniProt P31641, G62A) | binding, microscale thermophoresis | – | 62.5 µM, room temperature, together with: 50 nM labelled protein | higher = more binding | normalised MST signal | 0.0177
O=C1c2sc(-c3ccc(N4CCC(CO)CC4)nc3F)nc2CCN1c1cccnc1 | TARDBP aggregated | radioligand binding | human, FTLD-TDP type B sarkosyl-insoluble extract | 9.68 nM | – | specific binding | 1.09 nM and 1.15 nM
O[C@@H]1[C@@H](O)[C@H](Cl)C=C[C@H]1O | Lysosomal acid glucosylceramidase (GBA1, Homo sapiens, UniProt P04062) | covalent inhibitor | – | – | relative to: fluoride over chloride | kinact/Ki ratio | ~10 fold

Excerpt of the above:
SMILES | target or system | assay | test system | setting | scale | measurement | result
O=C(O)Cc1cc2c(cc1C(=O)c1cccc(I)c1)OCO2 | Gria1/Gria2 | glutamate-evoked current, whole-cell patch clamp | HEK-293T | concentration not given | – | current amplitude | 172 ± 16 pA
COC(=O)Cc1cc2c(cc1C(=O)c1ccc(Cl)cc1Cl)OCO2 | Gria1/Gria2 | glutamate-evoked current, whole-cell patch clamp | HEK-293T | concentration not given, glutamate alone after washout, together with: glutamate | – | current amplitude after recovery | 539 ± 38 pA
O=C1c2sc(-c3ccc(N4CCC(CO)CC4)nc3F)nc2CCN1c1cccnc1 | TARDBP aggregated | radioligand binding | human, FTLD-TDP type B sarkosyl-insoluble extract | 9.68 nM | – | specific binding | 1.09 nM and 1.15 nM
C=CC(=O)N1CCCC(n2c(=O)c3ncccc3n(Cc3ccc(Oc4ccccc4)cc3)c2=O)C1 (stereo not shown) | Septin-1 (SEPTIN1, Homo sapiens, UniProt Q8WYJ6) | thermal proteome profiling, measured: SEPTIN1 | – | treated | – | melting temperature | 46.8 °C and 41.2 °C
Cc1cc(-c2ccccc2)cc(C(=O)NNS(=O)(=O)c2ccccc2)c1F | Histone acetyltransferase KAT5 (KAT5, Homo sapiens, UniProt Q92993) | SPR | – | 1.85 µM | higher = more binding | SPR binding response | 0.121 RU
